Results pooled from the literature.
Protocols differ between the studies behind these lines. ± marks the error that the study gave.

For `COc1ccc(Oc2ccc(CN(C)Cc3cnc4nc(N)nc(N)c4n3)cc2)cc1`, the mitochondrial toxicity was 0.89 ± 17.6% (786-O; high-content imaging, measured: MitoTracker Red uptake; 10 µM).
`Nc1cccc2c1C(=O)N(C1CCC(=O)NC1=O)C2=O` (centres unmarked): “surface marker level” 157% (RPMI-8226; flow cytometry, measured: CD83; concentration not given; reference: comparator compound alone).
`CC1(C)CCC(CN2CCN(c3ccc(C(=O)NS(=O)(=O)c4ccc(NCC5CCOCC5)c([N+](=O)[O-])c4)c(Oc4cnc5[nH]ccc5c4)c3)CC2)=C(c2ccc(Cl)cc2)C1` has a viable cells of 93.7% (THP-1; annexin V/PI flow cytometry, measured: annexin V-/PI-; 0.4 µM, 24 h).
For `Cn1cc(Nc2nccc(-c3ccc4c(c3)CN(C3COC3)CC[C@H]4NC(=O)c3cn(C(C)(C)C)nn3)n2)cn1`, “pathway activation z-score” read 0.943 (mouse splenic B cells; measured: IL-6 signalling; 30 mg/kg, IgD-activated in vivo; reference: vehicle, direction not given).
`O=C(/C=C/C=C/C=C/C1CCCCC1)NC1=C[C@@](O)(/C=C/C=C/C=C/C(=O)NC2=C(O)CCC2=O)[C@@H]2O[C@@H]2C1=O` has a GI50 of 21400 nM (SUIT-2; cell growth, CellTiter-Glo; 78 h).
`CC(=O)O[C@H]1C(=O)[C@@]2(C)[C@H]([C@H](OC(=O)c3ccccc3)[C@]3(O)C[C@H](OC(=O)[C@H](O)[C@@H](NC(=O)c4ccccc4)c4ccccc4)C(C)=C1C3(C)C)[C@]1(OC(C)=O)CO[C@@H]1C[C@@H]2O` has a viability of 95.9% (CHP-212 resistant sublines, USP7 V517F heterozygous; 0.004572 µM).
`O=C(C=Cc1cc(C(=O)c2ccc(OC3CCCC3)cc2O)ccc1OCc1ccc2c(O)noc2c1)NCCOCCOCCOCCOCCOCCOCCOCCNc1cccc2c1C(=O)N(C1CCC(=O)NC1=O)C2=O` (centres unmarked): mRNA level “inhibited” (UMSCC1 cells; RT-qPCR, measured: FOSL1 target genes SNAI2, BMI1; concentration not given, 16 h).
For `Cc1cccc(-c2[nH]c(CNc3ccccc3F)nc2-c2ccc3ncnn3c2)n1`, the viability was 16% (MM1.S pomalidomide-resistant; XTT; 4 µM; reference: untreated).
`COc1cc(/C=C/C(=O)N2CCC=CC2=O)cc(OC)c1OC` gave a mRNA level of 129 ± 95.3% (MDA-MB-468; qRT-PCR, measured: CDKN2A; 30 µM, 6 h; reference: time zero).
The inhibition of `Cc1cc(C)nc(SCC(=O)Nc2ncc(Cc3cccc(OCc4cn(Cc5ccc(OCCN6CCOCC6)cc5)nn4)c3)s2)n1` is reported as 60.3 ± 6.6% (HGC-27; cell viability, MTS; 10 µM).
`Cn1cnc2c(F)c(Nc3ccc(Br)cc3F)c(C(=O)NOCCO)cc21` has a viability of 107% (A-375; 0.03906 µM, 72 h).
`CC(C)C[C@H](NC(=O)[C@H](Cc1ccccc1)NC(=O)c1cnccn1)B(O)O` has an IC50 of 7.23 nM (HD-MB03; cell growth; 168 h, DMSO).
`CNC(=C[N+](=O)[O-])NCCSCc1csc(CN(C)C)n1` — result for “reversal of trafficking deficit”: 8.07% (primary rat hippocampal/cortical neuron-glia cultures; 1 µM, together with: 1 µM α-synuclein oligomers).
`Nc1ccccc1NC(=O)c1ccc(CNc2nccc(-c3cccnc3)n2)cc1` has an IC50 of 324 nM (HD-MB03; cell growth; 168 h, DMSO).
The inhibition of `CC(=O)N1CCCC(N2C(=O)c3cccc(N)c3C2=O)C1` (centres unmarked) is reported as 19% (RAW 264.7; measured: nitrite; 30 µM, together with: LPS).
Under “log2 fold change”, `Cn1cc(-c2ccc(-c3cncc(Cl)c3N3CCC4(CCNC4=O)CC3)cc2)cn1` is recorded as 1.9 (COLO 205; gene expression, microarray, measured: PCK1 mRNA; concentration not given, 6 h; reference: untreated cells).
`C[C@H](Nc1ccc2c(c1)OCCn1cc(N3C(=O)OC[C@H]3C(F)F)nc1-2)C(N)=O` — result for “Hill coefficient GR curve”: 0.595 (NCI-H1048; cell growth, CellTiter-Glo; 120 h).
`CC(=O)O[C@H]1C(=O)[C@@]2(C)[C@H]([C@H](OC(=O)c3ccccc3)[C@]3(O)C[C@H](OC(=O)[C@H](O)[C@@H](NC(=O)c4ccccc4)c4ccccc4)C(C)=C1C3(C)C)[C@]1(OC(C)=O)CO[C@@H]1C[C@@H]2O` gave a resistance index of 389 (PC-3/TxR; MTS; reference: IC50 PC-3/TxR over PC-3).
`O=C(COC(=O)c1ccccc1Nc1cccc(C(F)(F)F)c1)Nc1ccc(F)cc1` — result for “mTOR protein level”: 0.362 (RAW264.7; Western blot; concentration not given, 72 h, unit not given, together with: LPS; reference: control).
`Cc1ccc(CNC(=O)Cn2cc(CSc3nc4ccccc4[nH]3)nn2)cc1` has a viability of 51.1% (MDA-MB-231; MTT; 3.91 ppm).
For `CCOc1cc(C(C)(C)C)ccc1C1=N[C@@](C)(c2ccc(Cl)cc2)[C@@](C)(c2ccc(Cl)cc2)N1C(=O)N1CCN(CCCS(C)(=O)=O)CC1`, the IC50 was 793 nM (HD-MB03; cell growth; 168 h, DMSO).
For `O=c1[nH]nc(OCCCc2ccc(Cl)cc2)c(NCc2cccnc2)c1Br`, “normalized enrichment score” read 1.34 (HEK-293T; RNA-seq GSEA, measured: HALLMARK_GLYCOLYSIS; concentration not given; direction not given).
Under “reversal of trafficking deficit”, `CCC(=O)O[C@]1(C(=O)SCF)[C@H](C)C[C@H]2[C@@H]3C[C@H](F)C4=CC(=O)C=C[C@]4(C)[C@@]3(F)[C@@H](O)C[C@@]21C` is recorded as -20.6% (primary rat hippocampal/cortical neuron-glia cultures; 1 µM, together with: 1 µM α-synuclein oligomers).
With `CCn1cc(-c2cc(Cn3ccnc3)cc3c2CCN([C@H](c2cc(OC)ccn2)C2CC2)C3=O)c(C(F)(F)F)n1` the EC50 was greater than 30000 nM (LCLC-97TM1; cell growth, inhibitor; 120 h).
`C=Cc1c2[n-]c(c1C)/C=c1\[n-]/c(c(C)c1C=C)=C\c1[n-]c(c(CCC(=O)O)c1C)/C=c1\[n-]c(c(C)c1CCC(=O)O)=C2.[Sn+4]`: “log2 fold change” 2.61 (SH-SY5Y; RNA-seq, measured: ZYX; 5 µM, 5 h; reference: untreated).
`Cc1cc(Nc2ncc(Cl)c(Nc3ccccc3S(=O)(=O)C(C)C)n2)c(OC(C)C)cc1C1CCNCC1`: “log2 fold change” -4 (CLB-BAR; phosphoproteomics LC-MS/MS, measured: ASAP3 phosphorylation; 200 nM, 60 min; reference: untreated).
For `O=C(O)CN(c1ccc(N(CC(=O)O)S(=O)(=O)c2cc3c(cc2Cl)OCCO3)c2ccccc12)S(=O)(=O)c1cc2c(cc1Cl)OCCO2`, the fold induction was greater than 2 (HepG2-C8 ARE-luciferase reporter cells; ARE reporter activation, luciferase reporter; 10 µM, 24 h, 0.1% DMSO; reference: vehicle control).
With `COc1cnc2cccc(N3CCc4c(cc(Cn5ccnc5C)cc4-c4cn(C)nc4C(F)(F)F)C3=O)c2c1` the EC50 was 19800 nM (BXPC-3; cell growth, inhibitor; 120 h).
For `CC1(C)OCCn2c1nc1c(N3CCOCC3)nc(-c3cnc(N)nc3)nc12`, “fold change in IC50” read 2.46 (HD-MB03; together with: ribociclib 5 µM; reference: ribociclib over DMSO).
`C[C@H]1Oc2cc(cnc2N)-c2c(nn(C)c2C#N)CN(C)C(=O)c2ccc(F)cc21` gave an Emax of 71.2% (NCI-H3122 (EML4-ALK variant 1); cell viability).
The EC50 of `CCn1cc(-c2cc(Cn3ccoc3=N)cc3c2CCN([C@@H](C)c2cc(OC)ccn2)C3=O)c(C(F)(F)F)n1` is reported as greater than 30000 nM (HGC-27; cell growth, inhibitor; 120 h).
For `CC/C(=N\NC(=O)C(C)Nc1ccccc1)c1ccc(O)c(C)c1O` (centres unmarked), the protein level was 0.43 ± 0.25 (SK-OV-3; Western blot, measured: phospho-YAP; 10 µM, 1 h, 2D culture, unit not given; reference: total YAP).
Under ERK1/2 activation, `CCCn1c(=O)c2[nH]c(-c3ccc(OCC(=O)Nc4ccc(C#N)cc4)cc3)nc2n(CCC)c1=O` is recorded as “inhibited” (H9c2; agonist; concentration not given, 20 min, A2B receptor-mediated, together with: pertussis toxin overnight).
`Cn1c(Nc2nc3ccc(C(F)(F)F)cc3s2)nc2cc(C(=O)NCCOCCO)ccc21` has a fold change of 2.12 (SH-SY5Y; RNA-seq, measured: TGM2 mRNA; 5 µM, 5 h; reference: untreated cells).
`CC[C@@]1(O)C(=O)OCc2c1cc1n(c2=O)Cc2cc3c(CN(C)C)c(O)ccc3nc2-1` gave an IC50 of 310 nM (HD-MB03; cell growth; 168 h, single agent).
For `CC(C)NCC(O)c1ccc(O)c(O)c1` (centres unmarked), the sarcomere length was 1.8 µm (mouse ventricular cardiomyocytes; dose not given, 0.303 s).
`Cc1cccc(-c2nn3c(c2-c2ccnc4ccc(C(N)=O)cc24)CCC3)n1` — result for IC50: “inactive” (HD-MB03; 168 h).
For `CC/C(=N\NC(=O)NCc1cccc(O)c1)c1ccc(O)c(C)c1O`, “LATS band intensity” read 0.43 ± 0.22 (SK-OV-3; Western blot; 10 µM, 3 h, 3D gellan gum culture, unit not given; reference: DMSO).
`CC(C)=CCC[C@@]1(C)C(CC[C@H]2[C@]3(C)CC[C@H](O)C(C)(C)O[C@H]3CC[C@@]2(C)O)=C(C)CC[C@H]1O`: “intracellular [3H]-paclitaxel remaining” 58.9% (KB-C2 (P-gp overexpressing); drug efflux; 10 µM, 120 min).
`CCCCc1oc2ccc(NS(C)(=O)=O)cc2c1C(=O)c1ccc(OCCCN(CCCC)CCCC)cc1` gave a fold change of 4.2 fold (human embryonic stem cell aggregates; mRNA level, microarray, measured: ONECUT1; 0.5 µM, 120 h; reference: untreated, up-regulated).
For `c1ccc2[nH]ccc2c1`, “mRNA level, LS mean” read 15.8 counts per million (HCT-8; RNA-seq, measured: FBXO32; concentration not given).
With `Cc1c(C)c2c(c(C)c1O)CCC(C)(COc1ccc(CC3SC(=O)NC3=O)cc1)O2` (centres unmarked) the IC50 was 67000 nM (hepatocytes, iPSC-derived, W2 line; cell viability, RealTime-Glo MT; 48 h, differentiation day 23).
For `Oc1nc(-c2ccc(C(F)(F)F)cc2)nc2c1CSCC2`, IC50 read “inactive” (HD-MB03; 168 h).
For `Cc1cnc(NC2CCOCC2)nc1-n1cnc(C(=O)NC(CN)c2cc(F)cc(Cl)c2)c1` (centres unmarked), “G1 phase cells” read 97.4% (A-375; flow cytometry; 1 µM, 72 h).
For `C=CCn1c(=O)c2cnc(Nc3ccc(N4CCN(C)CC4)cc3)nc2n1-c1ccc2c(n1)[C@@](O)(CC)CC2`, “G2/M phase mitotic cells” read 14% (NCI-H1048; flow cytometry; concentration not given).
`Cc1nc(Nc2n[nH]c3c2CN(C(=O)N[C@H](CN(C)C)c2ccccc2)C3(C)C)c2sccc2n1` gave an IC50 of 4.67 nM (HD-MB03; cell growth; single agent).
`CC[C@@]1(O)C(=O)OCc2c1cc1n(c2=O)Cc2cc3c(CN(C)C)c(O)ccc3nc2-1` — result for “reversal of trafficking deficit”: 9.63% (primary rat hippocampal/cortical neuron-glia cultures; 1 µM, together with: 1 µM α-synuclein oligomers).
